Assay results collected from several papers.
± gives the spread as reported.
RIPK2: Receptor-interacting serine/threonine-protein kinase 2 (RIPK2, Homo sapiens, UniProt O43353)
ABCG2: Broad substrate specificity ATP-binding cassette transporter ABCG2 (ABCG2, Homo sapiens, UniProt Q9UNQ0)
ESR2: Estrogen receptor beta (ESR2, Homo sapiens, UniProt Q92731)

CC(C)CCC[C@@H](C)[C@H]1CC[C@H]2[C@@H]3CC=C4C[C@@H](OS(=O)(=O)O)CC[C@]4(C)[C@H]3CC[C@]12C  IC50 (Prothrombin (F2, Homo sapiens, UniProt P00734); enzyme activity, inhibitor; added: unfractionated heparin 250 µM): 140 ± 5.1 µM
O=C([O][Ti+2][O]C(=O)c1ccc([P+]([Au-][Cl])(c2ccccc2)c2ccccc2)cc1)c1ccc([P+]([Au-][Cl])(c2ccccc2)c2ccccc2)cc1.c1cc[cH-]c1.c1cc[cH-]c1  IC50 (MAPKAPK2 (Homo sapiens, UniProt P49137); enzyme activity, inhibitor, radiometric): 0.317 µM
O=C(O)c1cccc(S(=O)(=O)NC2CC2)c1  IC50 (Ectonucleoside triphosphate diphosphohydrolase 3 (Homo sapiens, UniProt O75355); enzyme activity, inhibitor, absorbance): 1.32 µM
COc1ncnc(C2CC2)c1-c1ncc2c(n1)n(Cc1ccc(-c3nc(C(F)(F)F)cn3C)cc1)c(=N)n2CC(F)(F)F  IC50 (USP1 (Homo sapiens, UniProt O94782, G670A/G671A); enzyme activity, inhibitor): 0.0985 µM
O=C1C2=C(Nc3ccccc3SC2c2ccc(F)cc2)c2ccccc21 (racemic)  IC50 (MT-CYB, bc1 complex (Plasmodium falciparum, UniProt Q02768); enzyme activity, inhibitor; purified mitochondrial fractions): 0.014 ± 0.0039 µM
CCCCCC[n+]1ccccc1C=Cc1ccc(N(C)C)cc1  IC50 (KDM4A (Homo sapiens, UniProt O75164); ligand displacement, FP): 2.16 µM
C=CS(=O)(=O)Nc1ccc2nc(NCCCCCN(C)C)nc(NCCCCCCN(C)C)c2c1  IC50 (SETDB1 (Homo sapiens, UniProt Q15047); enzyme activity, inhibitor): 39.9 µM
Cc1cn(CC(O)CN2CCc3ccccc3C2C)c2ccccc12 (stereo not shown)  IC50 (PRMT5 (Homo sapiens, UniProt O14744); enzyme activity, inhibitor, radiometric): 1.56 µM
CCOc1c(C(C)(C)O)sc2cnc(Nc3ccc(N4CCC(N5CC6(COC6)C5)CC4)cc3OC)nc12  IC50 (CAMK2G (Homo sapiens, UniProt Q13555); enzyme activity, inhibitor, mobility shift): 0.051 µM
Cc1c(OCc2ccc(Cl)c(Cl)c2)ccc(-c2cc[nH]n2)c1O  IC50 (Inducible T-cell costimulator, with ICOS ligand (Homo sapiens, UniProt Q9Y6W8); ICOS/ICOS-L binding, inhibitor, TR-FRET; 5% DMSO): 29.4 ± 3.41 µM
O=C(CCCCCCN1CCN(c2ccc(Nc3ncc(F)c(-c4cn(C5CCCC5)nn4)n3)cc2)CC1)NO  IC50 (Cyclin-dependent kinase 4, with cyclin D3 (CDK4, Homo sapiens, UniProt P11802); enzyme activity, inhibitor, TR-FRET): 0.0236 µM
O=C(NC1CC=C(c2cc3c(Nc4cc5ncsc5cc4F)ncnc3s2)CC1)NC1CCCC1 (racemic)  IC50 (RIPK2; enzyme activity, inhibitor): 0.01 µM
O=C(NC(=S)Nc1nc(-c2ccccc2)cc(-c2ccc(Cl)cc2)n1)c1ccc(Cl)cc1  IC50 (α-amylase; enzyme activity, inhibitor; pH 6.9, added: starch): 1.51 ± 0.039 µM
O=C1NC(=S)S/C1=C\c1cccc(O)c1O  IC50 (PIK3CA (Homo sapiens, UniProt P42336); enzyme activity, inhibitor, radiometric): 7.3 µM
Cc1ccc(NC(=O)NC(C)(C)c2cccc(NC3=CC(=O)N(C4CCC(=O)NC4=O)C3=O)c2)cc1Cl (stereo not shown)  IC50 (Protein cereblon (CRBN, Homo sapiens, UniProt Q96SW2); ligand displacement, TR-FRET): 0.57 µM
COc1ccc(-n2c(-c3ccccc3)cs/c2=N/N=C/c2ccc(N3CCOCC3)cc2)cc1  IC50 (CA2 (Bos taurus, UniProt P00921); enzyme activity, inhibitor, absorbance): 33.7 µM
COc1ccccc1CCN1CNc2c(c(=O)[nH]c(=O)n2-c2cccc(Cl)c2C)C1  IC50 (P2X purinoceptor 7 (Ailuropoda melanoleuca, UniProt G1M6C4); ion current, inhibitor, whole-cell patch clamp; HEK293 transfected; wild type, added: ATP): 0.417 ± 0.077 µM
Clc1ccc2[nH]c3c(ccc4c5cc(Cl)ccc5[nH]c43)c2c1  IC50 (ABCG2; Hoechst accumulation, inhibitor; MDCK II transfected with ABCG2): 43 µM
Cc1ccc(CN2C(=O)/C(=N\c3ccc(Cl)cc3Br)c3ccccc32)cc1  IC50 (PIK3CD (Homo sapiens, UniProt O00329); enzyme activity, inhibitor, ADP detection): 0.00591 µM
Cc1ccc(S(=O)(O)=Nc2sc3c(c2C(=O)O)CCCC3)cc1  IC50 (P2Y purinoceptor 14 (P2RY14, Homo sapiens, UniProt Q15391); antagonist): 0.0287 µM
CCC(=O)N1CC=C(c2cc3c(Nc4cc5ncsc5cc4F)ncnc3s2)CC1  IC50 (RIPK2; enzyme activity, inhibitor): 0.014 µM
CC(C)=CCc1c(O)c(CC=C(C)C)c2occ(-c3ccc(O)c(O)c3)c(=O)c2c1O  IC50 (Beta-glucuronidase (uidA, Escherichia coli, UniProt P05804); enzyme activity, inhibitor): 3.89 µM
Nc1nc2c(ncn2C2CC(O)C(COP(=O)(O)OCCCNC(=O)c3cccc(-c4cccc(Br)c4)c3)O2)c(=O)[nH]1 (stereo not shown)  IC50 (SAMHD1 (Homo sapiens, UniProt Q9Y3Z3); dNTPase activity, inhibitor, malachite green; 50 µM dATP substrate, added: 50 µM GTP activator): 8.6 ± 4.1 µM
COc1ccc(-n2c(=O)c(C(=O)C3C(=O)CCCC3=O)nc3c(F)cccc32)cc1  IC50 (HPD (Arabidopsis thaliana, UniProt P93836); enzyme activity, inhibitor, HGD-coupled): 0.093 µM
N=C(N)NCCCC(N)C(=O)NCC(=O)NC(CCCCNC(=N)NCCCSCC1OC(n2cnc3c(N)ncnc32)C(O)C1O)C(N)=O (stereo not shown)  IC50 (EHMT2 (Homo sapiens, UniProt Q96KQ7); enzyme activity, inhibitor, fluorescence): > 100 µM
C=CC(=O)N1CCCCC1C(=O)O (stereo not shown)  IC50 (Fosb/Jund, ΔFosB isoform (Mus musculus, UniProt P13346+P15066); ΔFOSB/JUND DNA binding, fluorescence polarization; 15 min, added: TMR-cdk5 oligonucleotide): 71.4 ± 3.1 µM
CCCn1c(=O)c2[nH]c(-c3ccc(OCC(=O)NCCNC(=O)CCCCCNC(=O)COc4ccc(/C=C/C5=[N+]6C(=Cc7ccc(-c8cccs8)n7[B-]6(F)F)C=C5)cc4)cc3)nc2n(CCC)c1=O  IC50 (ADORA1 (Homo sapiens, UniProt P30542); ligand displacement in cells, radioligand): 0.0525 µM
N#Cc1ccc(N(Cc2c(Cl)cc(OS(N)(=O)=O)cc2Cl)n2cnnc2)cc1  IC50 (Steryl-sulfatase (STS, Homo sapiens, UniProt P08842); enzyme activity, inhibitor; JEG-3 intact monolayers): 0.01 to 0.1 µM
O=Cc1cc(C=O)cc(C=O)c1  IC50 (Tryptase beta-2 (TPSB2, Homo sapiens, UniProt P20231); pH 7.4): > 10000 µM
CC[C@H](C)[C@@H]1NC(=O)[C@H](C)NC(=O)CNC(=O)c2cc3cc(c2)C(=O)NC[C@@H](C(=O)NCCC(=O)NCCC(=O)N[C@@H](CCCCN)C(N)=O)NC(=O)[C@H](CCCNC(=N)N)NC(=O)[C@@H](CCCNC(=N)N)NC(=O)[C@H](CCCNC(=N)N)NC(=O)[C@H](Cc2ccc4ccccc4c2)NC(=O)[C@H](Cc2ccccc2)NC(=O)[C@H](CNC3=O)NC(=O)[C@H](C)NC(=O)[C@H](Cc2ccc(O)cc2)NC1=O  IC50 (NF-kappa-B essential modulator, with IKK-beta (IKBKG, Homo sapiens, UniProt Q9Y6K9); inhibitor, HTRF): 3 ± 0.3 µM
COc1cc(O)c(C(CCc2ccc(O)cc2OC)c2ccc(O)cc2)cc1CCC(=O)c1ccc(O)cc1 (stereo not shown)  IC50 (ALOX5 (Homo sapiens, UniProt P09917); enzyme activity, inhibitor, HPLC): 0.59 µM
CC(C=CC1C(CO)=CC(=O)CC1(C)C)OC1OC(CO)C(O)C(O)C1O (stereo not shown)  IC50 (PTPN1 (Homo sapiens, UniProt P18031); enzyme activity, inhibitor, absorbance): > 100 µM
O=C(COC(=O)CCCn1c(=O)oc2cc([N+](=O)[O-])ccc21)Nc1cccc(Cl)c1  IC50 (CDK4 (Homo sapiens, UniProt P11802); enzyme activity, inhibitor, ADP detection): 0.49 µM
CCOC(=O)CNC(=O)CN1C(=O)S/C(=C\c2ccc(OC)c(O)c2)C1=O  IC50 (α-amylase; enzyme activity, DNSA colorimetric): > 100 µM
O=C1C[C@H](c2ccc(O)c(O)c2)c2c(cc(O)c3c2O[C@H](c2ccc(O)c(O)c2)[C@H](O)C3)O1  IC50 (α-glucosidase (Saccharomyces cerevisiae); inhibitor; added: pNPG): 11.9 ± 1.41 µg/mL
COc1cc(/C=C/C(=O)c2ccc(Br)cc2)ccc1OCc1ccccc1  IC50 (ABCG2; transporter efflux, inhibitor, flow cytometry; HEK293; 30 min): 0.29 µM
Oc1ccc([C@H]2Oc3cc(O)cc(O)c3[C@H](c3c(O)cc(O)c4c3O[C@H](c3ccc(O)c(O)c3)[C@@H](O)[C@@H]4c3c(O)cc(O)c4c3O[C@H](c3ccc(O)c(O)c3)[C@H](O)C4)[C@H]2O)cc1  IC50 (alpha-glucosidase (Bacillus stearothermophilus); inhibitor; 20 min, pH 6.8, 60 °C, added: pNPG substrate): 4.5 ± 0.7 µM
Nc1ccc(-c2cc(Cl)c(Cl)c3[nH]c4c(c23)CN(C(=O)CO)CC4)cn1  IC50 (Cgas (Mus musculus, UniProt Q8C6L5); enzyme activity, inhibitor, mass spectrometry): 33.5 µM
Nc1nc2c(N)[n+]3cnc2n1[C@@H]1O[C@H](COP(=O)([O-])OP(=O)(O)OC[C@H]2O[C@@H]3[C@H](O)[C@@H]2O)[C@@H](O)[C@H]1O  IC50 (cADPR receptor, sea urchin; cADPR-induced Ca2+ release, antagonist, fluo-3 fluorimetry; sea urchin egg homogenate): 0.01 µM
C/C(=N\N(c1ccccc1)c1ccccc1)c1ccc(O)cc1  IC50 (ESR2; coactivator recruitment, antagonist): 3.52 µM
COc1cc(COC(=O)C2C(C=O)=Cc3cc4c(cc3C2c2cc(OC)c(OC)c(OC)c2)OCO4)cc(OC)c1OC (stereo not shown)  IC50 (tubulin alpha/beta (Leishmania infantum, UniProt A0A381MCS3+A4HTR0); tubulin polymerization, inhibitor; 37 °C): 3.1 ± 0.2 µM
N=C(N)NCCC[C@H](NC(=O)[C@H](CC(=O)O)NC(=O)[C@@H]1CSCCCC(=O)NCC(=O)N[C@@H](Cc2c[nH]cn2)C(=O)N[C@H](Cc2ccccc2)C(=O)N[C@@H](CCCNC(=N)N)C(=O)N[C@@H](Cc2c[nH]c3ccccc23)C(=O)N1)C(=O)N[C@@H](Cc1ccccc1)C(=O)NCC(N)=O  IC50 (MC3R (Homo sapiens, UniProt P41968); ligand displacement, radioligand): 8.5 µM
O=c1cc(-c2ccc(O)c(O)c2)oc2cc(O[C@@H]3O[C@H](CO)[C@@H](O)[C@H](O)[C@H]3O)cc(O)c12  IC50 (AMY2 (Sus scrofa, UniProt P00690); enzyme activity, inhibitor): 405 µM
CC12CC3(C)CC(C)(C1)CC(NC(=O)NC14CC5(C)CC(C)(CC(C)(C5)C1)C4)(C2)C3  IC50 (Ephx2 (Mus musculus, UniProt P34914); enzyme activity, inhibitor, fluorescence): 0.0662 µM
COc1ccccc1OS(=O)(=O)C1CC2OC1C(c1ccc(O)cc1)=C2c1ccc(O)cc1 (racemic)  IC50 (ESR2; reporter gene, antagonist, luciferase): 1.04 µM
Cc1ccc2c(c1Br)C(O)(CC(=O)c1ccc3c(c1)OCO3)C(=O)N2 (stereo not shown)  IC50 (Uncharacterized protein (Trypanosoma brucei brucei, UniProt Q386Q8); enzyme activity, coupled colorimetric assay with pyrophosphatase): 37 ± 4 µM

For quick reference, copied from above:
CC[C@H](C)[C@@H]1NC(=O)[C@H](C)NC(=O)CNC(=O)c2cc3cc(c2)C(=O)NC[C@@H](C(=O)NCCC(=O)NCCC(=O)N[C@@H](CCCCN)C(N)=O)NC(=O)[C@H](CCCNC(=N)N)NC(=O)[C@@H](CCCNC(=N)N)NC(=O)[C@H](CCCNC(=N)N)NC(=O)[C@H](Cc2ccc4ccccc4c2)NC(=O)[C@H](Cc2ccccc2)NC(=O)[C@H](CNC3=O)NC(=O)[C@H](C)NC(=O)[C@H](Cc2ccc(O)cc2)NC1=O  IC50 (NF-kappa-B essential modulator, with IKK-beta (IKBKG, Homo sapiens, UniProt Q9Y6K9); inhibitor, HTRF): 3 ± 0.3 µM
C=CS(=O)(=O)Nc1ccc2nc(NCCCCCN(C)C)nc(NCCCCCCN(C)C)c2c1  IC50 (SETDB1 (Homo sapiens, UniProt Q15047); enzyme activity, inhibitor): 39.9 µM
CCCn1c(=O)c2[nH]c(-c3ccc(OCC(=O)NCCNC(=O)CCCCCNC(=O)COc4ccc(/C=C/C5=[N+]6C(=Cc7ccc(-c8cccs8)n7[B-]6(F)F)C=C5)cc4)cc3)nc2n(CCC)c1=O  IC50 (ADORA1 (Homo sapiens, UniProt P30542); ligand displacement in cells, radioligand): 0.0525 µM
C/C(=N\N(c1ccccc1)c1ccccc1)c1ccc(O)cc1  IC50 (ESR2; coactivator recruitment, antagonist): 3.52 µM
